# Results gathered from unrelated publications.
# Each numbered part is a random draw from the data of one study; scales do not carry over between parts.
# Sequence of UniProt P00519 (whole entry, looked up): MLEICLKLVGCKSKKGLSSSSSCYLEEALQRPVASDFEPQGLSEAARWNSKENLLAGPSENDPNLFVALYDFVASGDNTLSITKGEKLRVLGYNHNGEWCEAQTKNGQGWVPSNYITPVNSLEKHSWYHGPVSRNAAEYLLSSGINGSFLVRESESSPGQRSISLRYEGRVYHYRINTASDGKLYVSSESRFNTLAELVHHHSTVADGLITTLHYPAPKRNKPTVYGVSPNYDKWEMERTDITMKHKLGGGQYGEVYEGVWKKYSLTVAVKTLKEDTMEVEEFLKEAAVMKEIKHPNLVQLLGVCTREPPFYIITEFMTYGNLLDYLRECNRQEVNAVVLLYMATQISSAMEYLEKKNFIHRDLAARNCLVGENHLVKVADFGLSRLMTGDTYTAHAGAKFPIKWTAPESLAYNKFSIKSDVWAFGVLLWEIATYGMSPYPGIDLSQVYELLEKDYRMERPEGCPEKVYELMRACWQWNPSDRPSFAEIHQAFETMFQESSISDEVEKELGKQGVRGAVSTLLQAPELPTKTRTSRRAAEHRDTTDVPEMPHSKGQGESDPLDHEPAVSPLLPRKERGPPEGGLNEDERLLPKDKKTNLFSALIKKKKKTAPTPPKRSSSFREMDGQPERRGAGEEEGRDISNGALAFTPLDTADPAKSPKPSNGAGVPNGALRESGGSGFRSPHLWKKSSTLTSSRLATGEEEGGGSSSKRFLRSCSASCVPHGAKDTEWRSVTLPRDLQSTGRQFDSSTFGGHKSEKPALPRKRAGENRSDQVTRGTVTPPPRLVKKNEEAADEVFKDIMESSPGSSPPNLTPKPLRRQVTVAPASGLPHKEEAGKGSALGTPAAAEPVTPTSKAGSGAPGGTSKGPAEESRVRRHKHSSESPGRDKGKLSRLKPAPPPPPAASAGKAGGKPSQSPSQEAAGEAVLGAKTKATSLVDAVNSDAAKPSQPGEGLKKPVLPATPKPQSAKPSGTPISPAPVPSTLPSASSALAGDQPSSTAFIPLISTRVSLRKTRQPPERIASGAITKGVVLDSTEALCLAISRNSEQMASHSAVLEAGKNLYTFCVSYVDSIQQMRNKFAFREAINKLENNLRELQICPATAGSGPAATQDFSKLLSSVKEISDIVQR
# Sequence of UniProt P49761 (whole entry, looked up): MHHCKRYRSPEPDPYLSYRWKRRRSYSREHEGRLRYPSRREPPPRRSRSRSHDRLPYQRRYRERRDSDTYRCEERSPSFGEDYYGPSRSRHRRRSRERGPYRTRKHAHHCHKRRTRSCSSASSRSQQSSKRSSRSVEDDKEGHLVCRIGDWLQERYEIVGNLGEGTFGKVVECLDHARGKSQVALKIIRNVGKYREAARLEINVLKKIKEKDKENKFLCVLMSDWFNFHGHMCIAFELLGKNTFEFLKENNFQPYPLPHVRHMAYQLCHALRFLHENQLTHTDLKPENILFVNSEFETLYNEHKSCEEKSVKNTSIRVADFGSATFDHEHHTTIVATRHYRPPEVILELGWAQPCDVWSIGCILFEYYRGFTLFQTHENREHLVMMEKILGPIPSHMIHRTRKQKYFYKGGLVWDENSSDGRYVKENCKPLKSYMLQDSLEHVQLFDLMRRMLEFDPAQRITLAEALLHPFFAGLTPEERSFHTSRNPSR
# Sequence of UniProt Q9HBY8 (whole entry, looked up): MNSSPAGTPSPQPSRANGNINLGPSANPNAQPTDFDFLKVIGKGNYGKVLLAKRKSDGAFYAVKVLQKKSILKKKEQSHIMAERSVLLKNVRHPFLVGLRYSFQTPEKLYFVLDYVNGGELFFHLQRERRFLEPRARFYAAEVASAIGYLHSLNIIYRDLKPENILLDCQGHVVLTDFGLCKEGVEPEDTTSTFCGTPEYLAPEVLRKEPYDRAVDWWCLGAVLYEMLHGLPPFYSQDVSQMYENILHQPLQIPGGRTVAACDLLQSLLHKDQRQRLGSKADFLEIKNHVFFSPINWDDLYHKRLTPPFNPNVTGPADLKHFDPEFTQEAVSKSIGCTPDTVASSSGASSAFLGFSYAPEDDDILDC
# Sequence of UniProt Q96J92 (whole entry, looked up): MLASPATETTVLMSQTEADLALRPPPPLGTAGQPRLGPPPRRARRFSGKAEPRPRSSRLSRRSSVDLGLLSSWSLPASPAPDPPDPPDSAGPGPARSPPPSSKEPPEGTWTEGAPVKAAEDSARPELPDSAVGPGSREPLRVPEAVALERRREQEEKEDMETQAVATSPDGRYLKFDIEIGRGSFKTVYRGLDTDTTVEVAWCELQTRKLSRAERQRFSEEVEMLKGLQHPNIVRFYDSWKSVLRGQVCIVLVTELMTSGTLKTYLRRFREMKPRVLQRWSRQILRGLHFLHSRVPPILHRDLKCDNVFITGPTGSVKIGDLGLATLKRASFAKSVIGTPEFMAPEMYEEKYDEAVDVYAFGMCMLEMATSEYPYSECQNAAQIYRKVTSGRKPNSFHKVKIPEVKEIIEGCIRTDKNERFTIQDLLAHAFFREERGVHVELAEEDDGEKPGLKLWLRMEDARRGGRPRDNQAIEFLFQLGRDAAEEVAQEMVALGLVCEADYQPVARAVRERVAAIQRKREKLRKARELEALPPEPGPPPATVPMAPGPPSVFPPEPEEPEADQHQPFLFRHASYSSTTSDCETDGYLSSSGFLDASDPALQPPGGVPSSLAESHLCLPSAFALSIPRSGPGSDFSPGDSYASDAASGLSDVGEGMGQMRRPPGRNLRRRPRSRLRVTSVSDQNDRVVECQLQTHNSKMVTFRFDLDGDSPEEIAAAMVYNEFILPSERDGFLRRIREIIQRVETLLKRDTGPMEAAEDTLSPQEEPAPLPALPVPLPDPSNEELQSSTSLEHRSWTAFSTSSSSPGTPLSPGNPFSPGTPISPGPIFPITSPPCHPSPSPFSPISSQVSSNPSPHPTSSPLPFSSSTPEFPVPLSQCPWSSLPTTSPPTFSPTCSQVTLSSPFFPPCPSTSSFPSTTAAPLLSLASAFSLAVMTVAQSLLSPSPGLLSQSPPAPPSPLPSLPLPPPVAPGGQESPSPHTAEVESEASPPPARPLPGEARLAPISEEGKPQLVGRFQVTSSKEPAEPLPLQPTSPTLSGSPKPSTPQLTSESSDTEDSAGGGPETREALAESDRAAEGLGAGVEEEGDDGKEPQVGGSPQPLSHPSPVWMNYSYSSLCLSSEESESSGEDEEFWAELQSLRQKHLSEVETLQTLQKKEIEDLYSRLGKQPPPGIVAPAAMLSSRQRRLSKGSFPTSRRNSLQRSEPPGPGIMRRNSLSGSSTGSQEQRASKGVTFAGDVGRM

# Block 1
# Structure (SMILES): O=C(NC[C@@H]1[C@H]2CN(C(=O)OCc3cc(C(F)(F)F)cc(C(F)(F)F)c3)C[C@@H]12)c1ccc2[nH]nnc2c1
# Read-out: cell-free assay
# Technique: competition with immobilised ligand
# Concentration: 1 µM
target,remaining binding [%]
"WNK4 (Homo sapiens, UniProt Q96J92)",89
"Tyrosine-protein kinase ABL1, phosphorylated (ABL1, Homo sapiens, UniProt P00519)",100
"SGK2 (Homo sapiens, UniProt Q9HBY8)",66

# Block 2
# Target: Ras GTPase-activating protein-binding protein 1, C-terminal RGG region (G3BP1, Homo sapiens, UniProt Q13283)
# Sequence of UniProt Q13283 (whole entry, looked up): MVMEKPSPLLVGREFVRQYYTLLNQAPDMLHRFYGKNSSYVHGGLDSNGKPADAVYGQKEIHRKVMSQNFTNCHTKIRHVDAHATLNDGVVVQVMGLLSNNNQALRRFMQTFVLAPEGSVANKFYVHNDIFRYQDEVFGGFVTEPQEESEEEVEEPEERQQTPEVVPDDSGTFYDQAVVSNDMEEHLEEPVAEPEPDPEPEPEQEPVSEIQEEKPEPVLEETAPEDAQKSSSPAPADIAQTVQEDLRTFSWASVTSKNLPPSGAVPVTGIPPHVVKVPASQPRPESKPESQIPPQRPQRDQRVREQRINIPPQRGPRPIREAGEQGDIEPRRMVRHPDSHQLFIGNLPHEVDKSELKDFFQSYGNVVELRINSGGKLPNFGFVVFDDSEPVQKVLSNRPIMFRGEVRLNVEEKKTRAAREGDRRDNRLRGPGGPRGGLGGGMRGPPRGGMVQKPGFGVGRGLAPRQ
# Technique: RNA Bind-n-Seq
# Molecule type: RNA
# Medium: in vitro
# Concentration: 1 µM
# Setting: whole 134-nt RNA, ends assumed
# Added: 150 mM KCl
# Relative to: input library
# Direction: higher = stronger binding
# All sequences stand within: GGGAGUUCUACAGUCCGACGAUC … UGGAAUUCUCGGGUGUCAAGG
Oligonucleotide,log2 enrichment
GUCCUGUGCUACACAUCGUAUGUACCGAAUCGGGGAAAAAGGGGAGGGGAAAAAGGGGAAAGUAUUAUGUUACGCCGUUCGGAUCUGCAC,1.11
CCUGUGCUACACAUCGUAUGUACCGAAUCGGGAAAAAAAGGGAAAAAAAGGAAAAAAAGGGAAAGUAUUAUGUUACGCCGUUCGGAUCUG,-1.89
UGUGCUACACAUCGUAUGUACCGAAUCGGGGAAAAAAAGGGGUUUUUUUGGGGAAAAAGGGGAAAGUAUUAUGUUACGCCGUUCGGAUCU,0.356
UCAAGUCCUGUGCUACACAUCGUAUGUACCGAAUCGGUUUUUUUGGAGGAAAGGAAAGUAUUAUGUUACGCCGUUCGGAUCUGCACUUCC,-1.18
GCAGGAAGUAAAAACAAAUGGAAAUGCUUCGGAUAGUGGCAGGGGUGGGGGUUGCUAAAAAAAGGGUGGGAUGGGAGUGGGUAAAGAGUU,2.13
CCUCAAGUCCUGUGCUACACAUCGUAUGUACCGAAUCGGUGGGUGGGGUGGGGAAAGUAUUAUGUUACGCCGUUCGGAUCUGCACUUCCA,0.596
AAGUCCUGUGCUACACAUCGUAUGUACCGAAUCGGGGAAAAGGGAAAAGGAAAAGGAAAGUAUUAUGUUACGCCGUUCGGAUCUGCACUU,-1.78
UCAAGUCCUGUGCUACACAUCGUAUGUACCGAAUCGGUUUGGUUUGGUUUUUGGAAAGUAUUAUGUUACGCCGUUCGGAUCUGCACUUCC,-1.1

# Block 3
# Target: Histone acetyltransferase KAT6A, winged helix 2, GST fusion (KAT6A, Homo sapiens, UniProt Q92794, residues 85-181)
# Technique: protein binding microarray
# Molecule type: double-stranded DNA, one strand shown
# Medium: in vitro
# Concentration: not given
# Setting: 8-mer, flanks averaged, mean of 2 arrays, mostly near background
# Relative to: not given
# Direction: higher = stronger binding
# Residues (chain): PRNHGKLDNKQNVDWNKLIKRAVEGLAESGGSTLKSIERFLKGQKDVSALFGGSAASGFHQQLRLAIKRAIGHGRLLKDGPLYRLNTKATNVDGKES
Oligonucleotide,E-score
CCCATCGA,-0.134
GCGTACCA,0.0575
CCGGGCCG,0.337
AGCACGCG,0.0865
GACCAGTC,-0.184
CCCCAAAA,0.0859
AACGAAGA,-0.0345
CGAATTTA,0.138

# Single results of other studies
SMILES,target,assay,setting,scale,endpoint,value
COc1cc2ncnc(Nc3ccc(O)c(Br)c3)c2cc1OC,"Dual specificity protein kinase CLK3 (CLK3, Homo sapiens, UniProt P49761)","enzyme activity, inhibitor",0.5 µM,relative to: control,remaining activity,54.1%

# A few entries again (block 3):
Oligonucleotide,E-score
GCGTACCA,0.0575
CCGGGCCG,0.337
AGCACGCG,0.0865
